Assay results collected from several papers.
Parts stem from different laboratories: compare values within a part only.

Set 1
Target: RNA binding protein fox-1 homolog 2, RRM domain, GST-SBP tag (RBFOX2, Homo sapiens, UniProt O43251-10, residues 100-194)
Method: RNA Bind-n-Seq
Molecule type: RNA
Matrix: in vitro
Tested at: 365 nM
Notes: natural RNA segment, single round, ends assumed
Relative to: no-protein control
Reading: higher = stronger binding
Quantity: RBNS enrichment (R)
Residues (chain): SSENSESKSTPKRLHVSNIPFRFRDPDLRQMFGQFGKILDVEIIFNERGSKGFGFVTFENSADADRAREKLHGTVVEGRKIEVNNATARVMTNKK
GGGAGUUCUACAGUCCGACGAUCUGAACCAGGUUUUUCCUUCUGAUUUUCCCUUUUCAACAUUCCUUACCAGUCACCAAAGUUUCCUGUUAUAAUUUCUUUUAGCAGACAAGUUAUAAGUCAGAUUUAAUUAGUGGAAUUCUCGGGUGCCAA: 0.338
GGGAGUUCUACAGUCCGACGAUCGCUGCAUUUUUGAAGCUGCCUGGCCCCCAGGGGCCCUGACCUGACCUCUCUCCUCUCCCCUCACCCUCCUGCCCCUGGCCACUGCAGGAUCAGGAGGGGAGAAGAAGGAGUGGAAUUCUCGGGUGCCAA: 0.702
GGGAGUUCUACAGUCCGACGAUCGACCUCCAACUCUCACCCACCCCCUCUACCAUCACCUCUAACCAGGCAAGCCAGGGUGGGAGAGCAAUCAGGAGAGCCAGGCCUCAGCUUCCAAUGCCUGGAGGGCCUCCUGGAAUUCUCGGGUGCCAA: 0.558
GGGAGUUCUACAGUCCGACGAUCUUUAAAAACAGAAUUGUGUUAUGUGAUCAGUUUUGGGGGUUAACUUUGCUUAAUUCCUCAGGCUUUGCGAUUUAAGGAGGAGCUGCCUUAAAAAAAAAUAAAGGCCUUAUUGGAAUUCUCGGGUGCCAA: 0.697

Set 2
Target: Histone acetyltransferase KAT6A, both winged helices, GST fusion (KAT6A, Homo sapiens, UniProt Q92794, residues 1-181)
Method: protein binding microarray
Molecule type: double-stranded DNA, one strand shown
Matrix: in vitro
Tested at: not given
Notes: 8-mer, flanks averaged, mean of 2 arrays, mostly near background
Relative to: not given
Reading: higher = stronger binding
Quantity: E-score
Construct (chain): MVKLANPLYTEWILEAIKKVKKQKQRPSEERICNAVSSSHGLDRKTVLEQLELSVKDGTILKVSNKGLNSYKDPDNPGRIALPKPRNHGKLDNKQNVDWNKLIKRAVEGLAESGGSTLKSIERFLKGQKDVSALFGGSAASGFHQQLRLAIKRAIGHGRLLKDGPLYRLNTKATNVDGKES
AGTGAATG: -0.0261
ATCGGCTA: 0.0652
CGCCGTCA: 0.28
CGAAGAGC: 0.158

Set 3
Target: Interferon regulatory factor 7, full length, phosphomimetic (IRF7, Homo sapiens, UniProt Q92985, residues 1-503, S101K/S471D/S472D/S475D/S476D/S477D/S483D/S484D/S487D)
Method: protein-binding microarray
Molecule type: double-stranded DNA, one strand shown
Matrix: in vitro
Tested at: 250 nM
Notes: 60-bp whole probe
With: salmon DNA 0.4 mg/ml
Relative to: random background probes
Reading: higher = stronger binding
Quantity: log fluorescence
Target sequence (chain): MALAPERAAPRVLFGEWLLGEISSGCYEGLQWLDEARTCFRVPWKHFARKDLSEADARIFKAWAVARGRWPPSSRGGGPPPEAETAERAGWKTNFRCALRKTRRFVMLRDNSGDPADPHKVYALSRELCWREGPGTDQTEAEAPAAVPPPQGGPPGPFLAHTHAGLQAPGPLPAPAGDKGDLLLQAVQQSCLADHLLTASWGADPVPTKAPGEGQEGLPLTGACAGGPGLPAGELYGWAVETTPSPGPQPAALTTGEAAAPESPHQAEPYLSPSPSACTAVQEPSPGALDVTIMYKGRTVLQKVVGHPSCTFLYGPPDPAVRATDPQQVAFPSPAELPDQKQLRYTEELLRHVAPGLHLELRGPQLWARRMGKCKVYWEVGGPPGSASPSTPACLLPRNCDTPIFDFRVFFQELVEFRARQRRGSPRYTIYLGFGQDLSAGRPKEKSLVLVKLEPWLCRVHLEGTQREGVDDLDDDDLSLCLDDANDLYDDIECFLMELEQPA
GCCTAGCACTTAGAGTTCAGTTCCGATTAGTGCTAGGTCTTGATTCGCTTGACGCTGCTG: 0.562 z-score
GCCTAGCACTTCGAACTGGGGTTTCGATTAGTGCTAGTCTTGATTCGCTTGACGCTGCTG: 6.02 z-score
GCCTAGCACGACGGTTTCGTACTGCTGACGTGCTAGGTCTTGATTCGCTTGACGCTGCTG: 5.98 z-score
GCCTAGCACGTCGGTATCCTTTTCCTGACGTGCTAGGTCTTGATTCGCTTGACGCTGCTG: 1.76 z-score

Further values, each from its own experiment
PhoQ, residues 284 288 289 292 302 303 ALAMYF
fold induction (PhoP, residues 12 14 15 18 19 TPWLV (Escherichia coli, UniProt P23836); Sort-seq, refers to: YFP reporter; E. coli; PhoQ-PhoP variant library, with: 10 µM Mg2+; relative to: high Mg2+ state, higher = stronger signaling): 6.7

Some of these lines once more (set 3):
GCCTAGCACTTCGAACTGGGGTTTCGATTAGTGCTAGTCTTGATTCGCTTGACGCTGCTG: 6.02 z-score
GCCTAGCACGACGGTTTCGTACTGCTGACGTGCTAGGTCTTGATTCGCTTGACGCTGCTG: 5.98 z-score
